# Measured values of several laboratories.
# Each line is one published result; not all experiments were run side by side. ± marks the error that the study gave.
# Chain of UniProt Q96L34 (whole entry, looked up): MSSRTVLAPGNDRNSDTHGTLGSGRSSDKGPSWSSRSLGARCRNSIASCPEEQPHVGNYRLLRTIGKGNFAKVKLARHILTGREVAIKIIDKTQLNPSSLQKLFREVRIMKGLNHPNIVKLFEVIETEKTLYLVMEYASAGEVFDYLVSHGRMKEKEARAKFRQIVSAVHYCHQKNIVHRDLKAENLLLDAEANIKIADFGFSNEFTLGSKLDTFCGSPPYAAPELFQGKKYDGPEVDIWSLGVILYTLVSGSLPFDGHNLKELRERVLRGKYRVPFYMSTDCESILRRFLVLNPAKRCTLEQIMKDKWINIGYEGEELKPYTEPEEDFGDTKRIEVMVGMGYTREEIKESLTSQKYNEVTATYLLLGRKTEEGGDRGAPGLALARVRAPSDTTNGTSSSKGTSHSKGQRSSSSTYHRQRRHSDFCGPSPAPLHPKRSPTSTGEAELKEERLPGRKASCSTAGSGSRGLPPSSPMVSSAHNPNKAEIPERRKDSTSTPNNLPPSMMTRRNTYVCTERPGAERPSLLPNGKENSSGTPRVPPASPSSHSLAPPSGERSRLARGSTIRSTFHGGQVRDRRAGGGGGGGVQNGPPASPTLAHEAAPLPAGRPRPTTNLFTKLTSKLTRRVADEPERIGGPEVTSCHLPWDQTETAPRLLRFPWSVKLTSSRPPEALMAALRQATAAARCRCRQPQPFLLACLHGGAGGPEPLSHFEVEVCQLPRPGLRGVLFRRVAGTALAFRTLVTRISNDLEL
# Chain of UniProt P11473 (whole entry, looked up): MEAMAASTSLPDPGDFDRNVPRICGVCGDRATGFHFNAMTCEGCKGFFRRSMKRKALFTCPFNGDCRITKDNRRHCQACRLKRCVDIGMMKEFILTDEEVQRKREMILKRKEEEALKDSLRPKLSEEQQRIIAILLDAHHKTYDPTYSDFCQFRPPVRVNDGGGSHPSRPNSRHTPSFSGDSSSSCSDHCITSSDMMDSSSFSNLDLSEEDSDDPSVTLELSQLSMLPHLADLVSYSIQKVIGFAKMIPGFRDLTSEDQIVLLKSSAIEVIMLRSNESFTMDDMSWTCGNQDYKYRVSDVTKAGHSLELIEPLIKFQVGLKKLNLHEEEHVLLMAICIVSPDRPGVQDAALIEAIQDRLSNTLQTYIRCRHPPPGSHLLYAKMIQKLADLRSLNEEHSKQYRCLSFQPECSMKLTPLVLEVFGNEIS
# Chain of UniProt O75608 (whole entry, looked up): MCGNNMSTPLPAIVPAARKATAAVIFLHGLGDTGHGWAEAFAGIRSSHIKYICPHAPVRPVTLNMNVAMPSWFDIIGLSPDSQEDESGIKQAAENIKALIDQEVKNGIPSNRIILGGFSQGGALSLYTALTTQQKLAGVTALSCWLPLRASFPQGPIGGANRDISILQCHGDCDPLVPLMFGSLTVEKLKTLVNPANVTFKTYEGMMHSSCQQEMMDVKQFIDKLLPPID
# Chain of UniProt Q92616 (whole entry, looked up): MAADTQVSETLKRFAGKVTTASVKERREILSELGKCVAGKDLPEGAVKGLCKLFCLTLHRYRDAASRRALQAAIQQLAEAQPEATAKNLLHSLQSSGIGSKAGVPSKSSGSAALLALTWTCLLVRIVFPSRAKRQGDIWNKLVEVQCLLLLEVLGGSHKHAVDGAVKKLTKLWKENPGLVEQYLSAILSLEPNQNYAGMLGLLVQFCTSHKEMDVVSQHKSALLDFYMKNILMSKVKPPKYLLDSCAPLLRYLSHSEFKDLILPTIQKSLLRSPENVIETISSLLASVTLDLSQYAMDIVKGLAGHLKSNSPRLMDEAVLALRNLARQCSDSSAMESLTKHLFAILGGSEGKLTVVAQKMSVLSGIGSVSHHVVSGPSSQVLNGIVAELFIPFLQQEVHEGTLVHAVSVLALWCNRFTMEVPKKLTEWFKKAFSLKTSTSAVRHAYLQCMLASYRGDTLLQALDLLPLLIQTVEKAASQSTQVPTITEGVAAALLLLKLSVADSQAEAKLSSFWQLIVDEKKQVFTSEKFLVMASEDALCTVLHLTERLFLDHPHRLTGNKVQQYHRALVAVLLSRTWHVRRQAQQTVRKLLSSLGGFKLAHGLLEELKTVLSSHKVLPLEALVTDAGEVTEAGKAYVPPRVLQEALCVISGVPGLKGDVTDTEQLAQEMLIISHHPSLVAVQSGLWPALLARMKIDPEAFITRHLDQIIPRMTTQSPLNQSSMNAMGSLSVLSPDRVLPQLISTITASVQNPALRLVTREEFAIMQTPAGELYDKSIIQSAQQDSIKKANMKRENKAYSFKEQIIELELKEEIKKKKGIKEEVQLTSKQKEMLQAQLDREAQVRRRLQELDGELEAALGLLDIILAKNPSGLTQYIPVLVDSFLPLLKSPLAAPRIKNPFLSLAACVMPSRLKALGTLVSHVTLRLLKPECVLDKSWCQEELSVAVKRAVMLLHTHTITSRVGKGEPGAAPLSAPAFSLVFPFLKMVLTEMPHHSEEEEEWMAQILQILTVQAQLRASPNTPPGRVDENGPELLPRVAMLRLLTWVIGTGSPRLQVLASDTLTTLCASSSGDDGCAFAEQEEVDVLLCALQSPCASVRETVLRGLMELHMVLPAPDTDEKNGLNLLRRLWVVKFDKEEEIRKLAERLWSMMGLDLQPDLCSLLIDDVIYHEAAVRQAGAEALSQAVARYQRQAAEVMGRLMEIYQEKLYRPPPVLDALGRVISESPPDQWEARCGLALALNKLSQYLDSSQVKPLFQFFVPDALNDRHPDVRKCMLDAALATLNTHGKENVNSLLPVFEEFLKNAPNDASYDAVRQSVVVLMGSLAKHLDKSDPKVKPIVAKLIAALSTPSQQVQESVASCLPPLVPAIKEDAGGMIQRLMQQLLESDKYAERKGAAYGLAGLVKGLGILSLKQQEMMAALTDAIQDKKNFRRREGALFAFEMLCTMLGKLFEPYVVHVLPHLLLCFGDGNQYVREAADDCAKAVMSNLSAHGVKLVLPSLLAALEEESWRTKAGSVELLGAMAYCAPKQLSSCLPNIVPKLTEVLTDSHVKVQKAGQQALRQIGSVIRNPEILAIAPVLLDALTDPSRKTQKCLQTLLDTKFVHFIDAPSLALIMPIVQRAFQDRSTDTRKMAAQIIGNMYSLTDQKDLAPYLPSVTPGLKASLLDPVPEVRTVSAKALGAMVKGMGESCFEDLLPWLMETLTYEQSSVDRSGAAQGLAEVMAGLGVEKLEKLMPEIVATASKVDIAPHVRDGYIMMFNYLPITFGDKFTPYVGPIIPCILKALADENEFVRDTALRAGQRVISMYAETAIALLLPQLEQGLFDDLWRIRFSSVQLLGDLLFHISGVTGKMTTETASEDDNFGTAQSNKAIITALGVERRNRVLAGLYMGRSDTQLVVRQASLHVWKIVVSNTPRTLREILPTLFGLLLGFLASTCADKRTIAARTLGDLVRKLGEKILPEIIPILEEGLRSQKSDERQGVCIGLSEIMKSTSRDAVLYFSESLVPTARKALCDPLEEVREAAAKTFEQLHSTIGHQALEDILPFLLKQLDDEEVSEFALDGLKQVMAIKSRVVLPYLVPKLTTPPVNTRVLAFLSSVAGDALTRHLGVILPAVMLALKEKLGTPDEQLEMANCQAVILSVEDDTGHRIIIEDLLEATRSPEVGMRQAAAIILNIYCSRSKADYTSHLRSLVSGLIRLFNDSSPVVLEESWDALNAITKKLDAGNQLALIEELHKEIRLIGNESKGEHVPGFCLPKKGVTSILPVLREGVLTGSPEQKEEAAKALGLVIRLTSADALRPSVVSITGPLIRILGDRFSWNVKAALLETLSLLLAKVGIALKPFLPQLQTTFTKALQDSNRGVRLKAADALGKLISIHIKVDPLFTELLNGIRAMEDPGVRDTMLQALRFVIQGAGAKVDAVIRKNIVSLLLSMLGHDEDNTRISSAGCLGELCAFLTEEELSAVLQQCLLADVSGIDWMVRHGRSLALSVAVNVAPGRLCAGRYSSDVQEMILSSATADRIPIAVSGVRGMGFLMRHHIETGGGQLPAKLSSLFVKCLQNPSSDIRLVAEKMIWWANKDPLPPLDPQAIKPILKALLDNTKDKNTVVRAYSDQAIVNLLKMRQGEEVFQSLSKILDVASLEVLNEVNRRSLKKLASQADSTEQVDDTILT
# Chain of UniProt H2K887 (whole entry, looked up): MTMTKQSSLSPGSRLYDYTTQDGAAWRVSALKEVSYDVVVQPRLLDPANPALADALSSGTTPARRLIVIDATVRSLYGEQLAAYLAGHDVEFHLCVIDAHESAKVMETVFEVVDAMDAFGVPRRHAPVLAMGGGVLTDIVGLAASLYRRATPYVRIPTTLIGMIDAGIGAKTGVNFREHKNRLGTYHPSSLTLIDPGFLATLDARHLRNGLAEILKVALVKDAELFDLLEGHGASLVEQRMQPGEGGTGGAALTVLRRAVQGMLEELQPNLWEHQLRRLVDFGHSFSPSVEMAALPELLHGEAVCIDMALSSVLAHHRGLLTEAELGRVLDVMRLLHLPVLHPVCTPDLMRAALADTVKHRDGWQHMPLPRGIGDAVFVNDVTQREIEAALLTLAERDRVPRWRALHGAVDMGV
# Chain of UniProt Q96BR1 (whole entry, looked up): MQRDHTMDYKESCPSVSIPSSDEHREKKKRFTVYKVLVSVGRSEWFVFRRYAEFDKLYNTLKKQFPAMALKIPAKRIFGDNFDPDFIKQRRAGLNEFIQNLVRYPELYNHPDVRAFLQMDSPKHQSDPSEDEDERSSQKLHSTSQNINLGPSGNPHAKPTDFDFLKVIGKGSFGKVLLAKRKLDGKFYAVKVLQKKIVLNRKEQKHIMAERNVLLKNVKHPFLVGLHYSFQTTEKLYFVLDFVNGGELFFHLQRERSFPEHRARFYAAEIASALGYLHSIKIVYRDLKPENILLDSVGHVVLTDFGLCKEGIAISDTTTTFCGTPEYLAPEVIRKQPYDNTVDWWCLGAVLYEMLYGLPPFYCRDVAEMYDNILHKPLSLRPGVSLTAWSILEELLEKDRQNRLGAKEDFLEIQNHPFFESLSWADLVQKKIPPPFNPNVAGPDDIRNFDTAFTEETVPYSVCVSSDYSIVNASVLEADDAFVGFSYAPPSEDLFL
SMILES,target,test,test system,conditions,scale,measurement,value
O=C(Nc1cccnn1)N1CCC(=Cc2cccc(Oc3ccc(C(F)(F)F)cn3)c2)CC1,"Calumenin (Calu, Rattus norvegicus, UniProt O35783)",competitive ABPP with azido-FP probe,rat brain soluble fraction,"0.01 µM, unit not given",baseline: DMSO,probe labelling,-13.3
O=P(O)(O)OC[C@H]1C[C@](O)(CO)[C@@H](O)[C@H](O)[C@@H]1O,"valA (Streptomyces hygroscopicus, UniProt H2K887)",phosphate release,,50 µM,,apparent Vmax,2.8 ± 0.4 µM/min
COc1ccc(N2C(=O)N(c3c(C)cccc3Cl)Cc3cnc(Nc4ccc(C5CCN(C)CC5)cc4OC)nc32)nc1,"Serine/threonine-protein kinase Sgk3 (SGK3, Homo sapiens, UniProt Q96BR1)",kinase activity,,0.5 µM,,inhibition,6%
O=C(Nc1cnccc1Cl)N1CCN(Cc2ccc3c(c2)OC(F)(F)O3)CC1,"Vitamin D3 receptor (VDR, Homo sapiens, UniProt P11473)","radioligand binding, inhibitor",,"50 µM, human, together with: [3H]1alpha,25-dihydroxyvitamin D3",,inhibition,19%
C[n+]1cn([C@@H]2O[C@H](COP(=O)([O-])OP(=O)(O)OP(=O)(O)OC[C@H]3O[C@@H](n4cnc5c(=O)[nH]c(N)nc54)[C@H](O)[C@@H]3O)[C@@H](O)[C@H]2O)c2nc(N)[nH]c(=O)c21,"m7GpppX diphosphatase (DCS1, Saccharomyces cerevisiae, UniProt Q06151, H268N)","binding, ITC",,,,stoichiometry second site,1.01
[2H]c1c([2H])c([C@]2([2H])CCCN2C(=O)C(C)(C)Oc2ccc3cn[nH]c3c2)c([2H])c([2H])c1C([2H])([2H])[2H],"MAP/microtubule affinity-regulating kinase 4 (MARK4, Homo sapiens, UniProt Q96L34)",KINOMEscan,,1 µM,baseline: DMSO control,remaining binding,75%
CN1CCN(c2cc(-c3ccncc3)c(-c3ccc4ccccc4c3)nn2)CC1,"Beta-3 adrenergic receptor (ADRB3, Homo sapiens, UniProt P13945)","antagonist, FLIPR",,10 µM,,inhibition,21.9%
O=C(c1ccc(Cl)cc1)N1CCN2C(=O)N(OC(=O)N3CCOc4ccccc43)C(=O)C2C1 (stereo not drawn),"Acyl-protein thioesterase 1 (Homo sapiens, UniProt O75608)",MS-based ABPP,SW-620 conditioned medium,"10 µM, 1 h, 37 °C","baseline: compound over DMSO, lower = more inhibition",median protein ratio,0.98
C[C@H]1CN(c2n[nH]c3nc(N[C@H]4CC[C@H](NS(=O)(=O)CCC(F)(F)F)CC4)ncc23)CCO1,"Stalled ribosome sensor GCN1 (Homo sapiens, UniProt Q92616)","Kinobeads competition, refers to: GCN1L1",,"0.16 µM, unit not given",baseline: vehicle,remaining binding,1

# Excerpt of the above:
SMILES,target,test,test system,conditions,scale,measurement,value
C[C@H]1CN(c2n[nH]c3nc(N[C@H]4CC[C@H](NS(=O)(=O)CCC(F)(F)F)CC4)ncc23)CCO1,"Stalled ribosome sensor GCN1 (Homo sapiens, UniProt Q92616)","Kinobeads competition, refers to: GCN1L1",,"0.16 µM, unit not given",baseline: vehicle,remaining binding,1
